Published values pooled from the literature.
Parts stem from different laboratories: compare values within a part only. ± marks the error that the study gave.
UniProt Q6XUX3, sequence (whole entry, looked up): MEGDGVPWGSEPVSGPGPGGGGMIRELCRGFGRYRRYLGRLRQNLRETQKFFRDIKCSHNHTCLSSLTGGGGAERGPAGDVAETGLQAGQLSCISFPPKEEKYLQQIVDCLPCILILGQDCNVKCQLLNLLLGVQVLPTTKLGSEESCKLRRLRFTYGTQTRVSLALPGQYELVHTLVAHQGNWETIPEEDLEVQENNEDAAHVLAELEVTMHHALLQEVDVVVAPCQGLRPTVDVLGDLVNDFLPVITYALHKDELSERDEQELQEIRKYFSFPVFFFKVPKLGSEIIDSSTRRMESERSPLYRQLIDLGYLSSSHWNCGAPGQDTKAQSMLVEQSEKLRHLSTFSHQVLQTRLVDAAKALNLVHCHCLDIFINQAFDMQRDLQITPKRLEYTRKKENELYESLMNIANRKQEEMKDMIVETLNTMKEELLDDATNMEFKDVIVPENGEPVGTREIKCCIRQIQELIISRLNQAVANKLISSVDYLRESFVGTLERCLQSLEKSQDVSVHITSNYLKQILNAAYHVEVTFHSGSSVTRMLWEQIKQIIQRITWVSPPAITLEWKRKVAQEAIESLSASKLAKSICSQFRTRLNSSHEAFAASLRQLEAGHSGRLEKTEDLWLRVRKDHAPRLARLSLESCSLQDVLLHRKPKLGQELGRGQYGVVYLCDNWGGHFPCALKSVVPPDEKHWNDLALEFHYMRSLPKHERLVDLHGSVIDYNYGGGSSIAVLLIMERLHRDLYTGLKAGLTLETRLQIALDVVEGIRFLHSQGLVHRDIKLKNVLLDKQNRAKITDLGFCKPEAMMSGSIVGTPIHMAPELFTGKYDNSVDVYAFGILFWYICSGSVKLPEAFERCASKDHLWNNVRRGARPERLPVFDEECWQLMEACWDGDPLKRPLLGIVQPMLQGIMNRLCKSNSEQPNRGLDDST
UniProt P35968, sequence (whole entry, looked up): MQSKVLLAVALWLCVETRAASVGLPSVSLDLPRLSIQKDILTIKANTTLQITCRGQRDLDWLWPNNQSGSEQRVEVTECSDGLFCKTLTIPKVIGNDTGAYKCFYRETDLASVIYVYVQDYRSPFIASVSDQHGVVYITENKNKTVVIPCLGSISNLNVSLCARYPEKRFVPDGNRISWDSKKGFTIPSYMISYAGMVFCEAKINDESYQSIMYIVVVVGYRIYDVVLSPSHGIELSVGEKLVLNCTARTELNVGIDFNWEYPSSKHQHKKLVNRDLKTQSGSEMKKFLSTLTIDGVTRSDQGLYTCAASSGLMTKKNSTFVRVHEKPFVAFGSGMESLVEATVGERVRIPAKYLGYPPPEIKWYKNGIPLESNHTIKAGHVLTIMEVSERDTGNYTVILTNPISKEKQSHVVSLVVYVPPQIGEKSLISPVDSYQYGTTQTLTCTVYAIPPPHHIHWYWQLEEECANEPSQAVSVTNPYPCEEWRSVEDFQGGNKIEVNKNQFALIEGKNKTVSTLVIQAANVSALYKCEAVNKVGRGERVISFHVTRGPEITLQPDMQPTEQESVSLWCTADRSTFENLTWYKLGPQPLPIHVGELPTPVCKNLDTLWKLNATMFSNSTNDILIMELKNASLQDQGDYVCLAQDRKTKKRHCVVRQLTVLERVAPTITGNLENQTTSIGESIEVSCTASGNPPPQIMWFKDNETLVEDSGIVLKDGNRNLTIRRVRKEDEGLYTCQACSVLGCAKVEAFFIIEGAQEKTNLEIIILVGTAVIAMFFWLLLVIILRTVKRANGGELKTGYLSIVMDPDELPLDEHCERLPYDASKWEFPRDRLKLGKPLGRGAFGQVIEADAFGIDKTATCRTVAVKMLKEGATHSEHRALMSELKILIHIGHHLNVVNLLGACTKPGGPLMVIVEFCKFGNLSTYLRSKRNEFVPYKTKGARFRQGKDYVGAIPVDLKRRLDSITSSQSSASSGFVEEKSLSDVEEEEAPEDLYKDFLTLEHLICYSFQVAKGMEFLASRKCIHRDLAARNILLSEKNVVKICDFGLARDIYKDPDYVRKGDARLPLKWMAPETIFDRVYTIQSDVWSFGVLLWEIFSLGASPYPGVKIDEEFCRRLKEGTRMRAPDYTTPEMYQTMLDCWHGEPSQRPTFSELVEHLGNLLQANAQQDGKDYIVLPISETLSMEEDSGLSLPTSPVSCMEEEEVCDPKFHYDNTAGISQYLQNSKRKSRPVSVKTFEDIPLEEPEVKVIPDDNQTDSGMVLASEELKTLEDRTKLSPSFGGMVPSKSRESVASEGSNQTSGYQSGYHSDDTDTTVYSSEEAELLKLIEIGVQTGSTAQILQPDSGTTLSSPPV
UniProt Q9H422, sequence (whole entry, looked up): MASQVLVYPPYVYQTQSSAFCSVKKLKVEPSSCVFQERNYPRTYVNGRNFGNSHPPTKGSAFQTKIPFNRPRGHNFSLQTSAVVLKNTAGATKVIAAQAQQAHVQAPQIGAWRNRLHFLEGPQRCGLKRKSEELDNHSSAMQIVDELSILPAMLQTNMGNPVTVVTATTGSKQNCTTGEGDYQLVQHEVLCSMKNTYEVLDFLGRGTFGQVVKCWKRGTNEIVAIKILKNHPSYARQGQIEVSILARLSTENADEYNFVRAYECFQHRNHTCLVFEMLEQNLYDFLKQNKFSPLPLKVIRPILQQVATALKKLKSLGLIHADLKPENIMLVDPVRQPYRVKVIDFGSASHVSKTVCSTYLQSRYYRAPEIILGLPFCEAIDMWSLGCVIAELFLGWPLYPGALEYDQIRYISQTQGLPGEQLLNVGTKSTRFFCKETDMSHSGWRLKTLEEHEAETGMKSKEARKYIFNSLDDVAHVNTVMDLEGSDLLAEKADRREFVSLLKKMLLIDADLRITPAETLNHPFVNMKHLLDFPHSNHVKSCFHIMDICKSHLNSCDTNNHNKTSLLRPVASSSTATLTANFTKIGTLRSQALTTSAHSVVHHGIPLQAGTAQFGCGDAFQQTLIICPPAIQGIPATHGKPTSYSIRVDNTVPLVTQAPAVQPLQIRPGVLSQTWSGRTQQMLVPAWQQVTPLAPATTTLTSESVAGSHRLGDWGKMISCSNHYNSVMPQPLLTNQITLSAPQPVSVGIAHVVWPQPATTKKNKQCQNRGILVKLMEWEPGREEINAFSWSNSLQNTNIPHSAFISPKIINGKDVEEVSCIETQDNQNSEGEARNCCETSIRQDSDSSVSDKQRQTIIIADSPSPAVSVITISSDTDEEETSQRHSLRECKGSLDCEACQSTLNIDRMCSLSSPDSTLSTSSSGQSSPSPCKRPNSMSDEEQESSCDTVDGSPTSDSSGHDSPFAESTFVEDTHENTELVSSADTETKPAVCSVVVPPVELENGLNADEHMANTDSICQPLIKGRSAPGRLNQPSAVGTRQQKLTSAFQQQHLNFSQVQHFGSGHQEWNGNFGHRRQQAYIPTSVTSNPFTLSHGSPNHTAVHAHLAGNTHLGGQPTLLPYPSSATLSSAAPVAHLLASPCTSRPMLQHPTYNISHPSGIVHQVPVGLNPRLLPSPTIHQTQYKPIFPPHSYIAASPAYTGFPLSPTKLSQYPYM
UniProt P10721, sequence (whole entry, unmodified, looked up): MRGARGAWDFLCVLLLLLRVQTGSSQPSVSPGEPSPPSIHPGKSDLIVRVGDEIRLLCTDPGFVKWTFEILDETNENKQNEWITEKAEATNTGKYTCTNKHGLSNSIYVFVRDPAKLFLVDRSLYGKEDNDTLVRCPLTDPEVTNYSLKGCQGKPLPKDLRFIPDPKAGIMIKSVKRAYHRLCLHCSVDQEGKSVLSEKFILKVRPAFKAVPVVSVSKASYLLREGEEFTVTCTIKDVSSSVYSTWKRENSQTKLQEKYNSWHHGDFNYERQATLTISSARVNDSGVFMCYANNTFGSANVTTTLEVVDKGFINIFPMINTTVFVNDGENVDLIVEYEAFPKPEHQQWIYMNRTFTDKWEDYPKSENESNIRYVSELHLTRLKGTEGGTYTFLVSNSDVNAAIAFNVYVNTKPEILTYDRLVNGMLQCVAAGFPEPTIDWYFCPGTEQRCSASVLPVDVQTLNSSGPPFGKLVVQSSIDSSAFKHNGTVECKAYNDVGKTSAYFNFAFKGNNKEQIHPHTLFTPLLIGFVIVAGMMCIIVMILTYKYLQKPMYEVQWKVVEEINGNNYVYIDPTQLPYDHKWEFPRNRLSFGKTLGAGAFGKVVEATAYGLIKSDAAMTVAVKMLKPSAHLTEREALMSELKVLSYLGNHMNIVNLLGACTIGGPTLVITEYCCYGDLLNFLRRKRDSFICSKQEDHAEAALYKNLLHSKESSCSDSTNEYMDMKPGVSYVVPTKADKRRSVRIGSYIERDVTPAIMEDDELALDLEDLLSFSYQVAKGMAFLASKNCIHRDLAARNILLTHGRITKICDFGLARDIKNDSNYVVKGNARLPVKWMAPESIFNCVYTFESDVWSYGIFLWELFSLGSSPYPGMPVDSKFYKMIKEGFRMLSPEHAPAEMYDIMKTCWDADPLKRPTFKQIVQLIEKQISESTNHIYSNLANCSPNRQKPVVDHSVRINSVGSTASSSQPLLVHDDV

Series 1 — observed: cell-free assay; method: competition with immobilised ligand; concentration: 1 µM; measurement: remaining binding
Structure (SMILES): CC(=O)c1c(NS(C)(=O)=O)c2cc(-c3ccc(Cl)cc3)c(-c3ccc(Cl)cc3Cl)nc2n(C)c1=O
ROCK2 (Homo sapiens, UniProt O75116): 100%
CAMK1 (Homo sapiens, UniProt Q14012): 100%
NEK6 (Homo sapiens, UniProt Q9HC98): 100%
ALK (Homo sapiens, UniProt Q9UM73, C1156Y): 100%
ABL2 (Homo sapiens, UniProt P42684): 100%
IKBKE (Homo sapiens, UniProt Q14164): 73%
LTK (Homo sapiens, UniProt P29376): 100%
EPHA1 (Homo sapiens, UniProt P21709): 100%
KIT (Homo sapiens, UniProt P10721, D816H): 70%
FLT3 (Homo sapiens, UniProt P36888, K663Q): 100%
KDR (Homo sapiens, UniProt P35968): 82%
DDR2 (Homo sapiens, UniProt Q16832): 96%
CDK2 (Homo sapiens, UniProt P24941): 100%
CAMKK2 (Homo sapiens, UniProt Q96RR4): 100%
DSTYK (Homo sapiens, UniProt Q6XUX3): 100%
WEE2 (Homo sapiens, UniProt P0C1S8): 100%
HIPK3 (Homo sapiens, UniProt Q9H422): 88%

Series 2 — organism: Sarcocystis neurona; observed: parasite activity; concentration: 10 µM; time: 96 h; measurement: activity class
Oc1ccc(/C=C/c2cc(O)cc(O)c2)cc1: inactive
C[C@](N)(Cc1ccc(O)c(O)c1)C(=O)O: inactive
C[C@H]1c2cccc(O)c2C(=O)C2=C(O)[C@]3(O)C(=O)C(C(N)=O)=C(O)[C@@H](N(C)C)[C@@H]3[C@@H](O)[C@@H]21: inactive
NC1CCN(c2nc3c(cc2F)c(=O)c(C(=O)O)cn3-c2ccc(F)cc2F)C1 (centres unmarked): inactive
CC(=O)CC(c1ccccc1)c1c(O)c2ccccc2oc1=O (centres unmarked): inactive
CCn1cc(C(=O)O)c(=O)c2cc(F)c(N3CCNCC3)cc21: inactive
NS(=O)(=O)c1cc(C2(O)NC(=O)c3ccccc32)ccc1Cl (centres unmarked): inactive
CN(C)CCC[C@@]1(c2ccc(F)cc2)OCc2cc(C#N)ccc21: inactive

Series 3 — mode: agonist; measurement: EC50
Target: Beta-1 adrenergic receptor (ADRB1, Homo sapiens, UniProt P08588)
UniProt P08588, sequence (whole entry, looked up): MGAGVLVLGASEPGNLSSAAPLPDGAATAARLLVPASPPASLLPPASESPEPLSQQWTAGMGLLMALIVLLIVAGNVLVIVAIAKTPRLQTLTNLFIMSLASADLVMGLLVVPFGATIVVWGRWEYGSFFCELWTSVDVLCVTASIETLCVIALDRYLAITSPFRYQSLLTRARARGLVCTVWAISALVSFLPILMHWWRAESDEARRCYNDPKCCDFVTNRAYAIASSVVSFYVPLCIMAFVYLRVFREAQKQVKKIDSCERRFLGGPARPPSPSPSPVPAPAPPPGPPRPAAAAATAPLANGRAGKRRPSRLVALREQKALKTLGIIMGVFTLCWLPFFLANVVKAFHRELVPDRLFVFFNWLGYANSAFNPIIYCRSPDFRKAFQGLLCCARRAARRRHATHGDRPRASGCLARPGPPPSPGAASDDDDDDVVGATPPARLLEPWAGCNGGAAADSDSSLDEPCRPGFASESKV
COc1ccccc1N1CCC(CNC(=O)c2c[nH]c3ccccc23)C1 (centres unmarked): ≥ 100 µM
CC(C)(C)NCC(O)COc1cc(Cl)ccc1Cl (centres unmarked): ≥ 100 µM
CN(C)c1cccc(C(=O)N2CC(COc3ccccc3)C3(C2)CN(C(=O)c2cn[nH]c2)C3)c1 (centres unmarked): ≥ 100 µM
COc1ccc(C(=O)N2CCc3cc(OC)c(OC)cc3C2COc2ccc3c(C)cc(=O)oc3c2)c(OC)c1 (centres unmarked): ≥ 100 µM
CN(C)c1ccc(CN2CCOC[C@H]2c2nc(-c3cccc(F)c3)c[nH]2)cc1: ≥ 100 µM
COc1ccccc1N1CCN(C(C)C(N)=O)CC1 (centres unmarked): ≥ 100 µM
CC(C)CN(C)C(=O)c1cc(-c2cnn(C(C)C)c2)nc2ccc(F)cc12: ≥ 100 µM
O=c1c(Cl)c(NC(c2ccccc2)c2cccs2)cnn1-c1ccccc1 (centres unmarked): ≥ 100 µM
Cc1cc(I)ccc1Nc1nc(NCCN2CCOCC2)nc(N2CCOCC2)n1: ≥ 100 µM
COc1ccccc1N1CCN(CC(=O)N2CCCC2c2ccc3c(c2)OCCO3)CC1 (centres unmarked): ≥ 100 µM
Cn1c(=O)cc(N2CCN(c3cccc(Cl)c3)CC2)[nH]c1=O: ≥ 100 µM
c1ccc(CCCc2noc(-c3ccc(N4CCCNCC4)nc3)n2)cc1: ≥ 100 µM
COc1cc2c3c(c1)C1(C(=O)N3C(C)(C)C=C2C)C(C#N)=C(N)Oc2cc(O)ccc21 (centres unmarked): ≥ 100 µM
Cc1oc(C(O)c2ccccc2)nc1C(=O)NCCN1CCOCC1 (centres unmarked): ≥ 100 µM
N#C/C(=C\c1ccc(O)c(O)c1)C(=O)NCCCCc1ccccc1: ≥ 100 µM
Cc1ccccc1-c1n[nH]c2ncc(-c3cn[nH]c3)nc12: ≥ 100 µM
CCC(c1ccccc1)N1CCN(CC(C)O)CC1 (centres unmarked): ≥ 100 µM
Cc1ccsc1-c1n[nH]c2ncc(-c3ccccc3F)nc12: ≥ 100 µM
CCOc1ccccc1N1CCN([S+](=O)([O-])c2cc(OC)ccc2OC)CC1: ≥ 100 µM
Cc1oc(C(O)c2cccc(O)c2)nc1C(=O)Nc1ccc(N2CCOCC2)cc1 (centres unmarked): ≥ 100 µM
CC[C@@H]1OC(OC(c2c[nH]cn2)C(NC(=O)c2nc(C(CC(N)=O)NCC(N)C(N)=O)nc(N)c2C)C(=O)NC(C)C(O)C(C)C(=O)NC(C(=O)NCCc2nc(-c3nc(C(=O)NCCCCNC(=N)N)cs3)cs2)C(C)O)[C@@H](O[C@H]2O[C@H](CO)[C@@H](O)[C@H](OC(N)=O)[C@@H]2O)[C@@H](C)[C@@H]1C (some centres unmarked): ≥ 100 µM

Mixed results
COc1cc2c(cc1OC)C1CC(=O)C(CC(C)C)CN1CC2 (centres unmarked)
Ki (Synaptic vesicular amine transporter (SLC18A2, Homo sapiens, UniProt Q05940)): 0.0119 ± 0.00077 µM
